Measured values gathered from unrelated publications.
A part holds a random share of what one study measured.

Block 1
Target: Interferon regulatory factor 3, full length, phosphomimetic (IRF3, Homo sapiens, UniProt Q14653, residues 1-427, S386D/S396D/S398D/S402D/T404D/S405D)
Technique: protein-binding microarray
Form: double-stranded DNA, one strand shown
Matrix: in vitro
Concentration: 2540 nM top
Setting: 60-bp whole probe
Together with: salmon DNA 0.4 mg/ml
Reference: random background probes
Reading: higher = stronger binding
Constant ends, left off below: GCCTAGCAC … GTCTTGATTCGCTTGACGCTGCTG
Residues (chain): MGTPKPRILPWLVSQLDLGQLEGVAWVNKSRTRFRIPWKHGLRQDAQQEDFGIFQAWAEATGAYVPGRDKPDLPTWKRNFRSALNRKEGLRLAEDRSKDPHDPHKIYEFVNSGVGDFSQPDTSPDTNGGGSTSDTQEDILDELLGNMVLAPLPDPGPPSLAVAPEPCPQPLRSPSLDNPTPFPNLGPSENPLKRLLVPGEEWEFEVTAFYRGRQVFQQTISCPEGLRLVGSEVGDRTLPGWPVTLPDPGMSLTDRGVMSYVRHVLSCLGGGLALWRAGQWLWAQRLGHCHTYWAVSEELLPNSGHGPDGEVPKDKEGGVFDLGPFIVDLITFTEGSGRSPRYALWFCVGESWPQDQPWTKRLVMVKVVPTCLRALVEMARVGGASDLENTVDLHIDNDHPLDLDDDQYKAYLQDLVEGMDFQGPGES
| Sequence | fitted relative affinity [z-score] |
| --- | --- |
| GTGAGTCCCAAGAATGGTGTGGTGCTA | -0.729 |
| GACGGTTTCGTCTATCGGGACGTGCTA | 2.58 |
| GACGGTTTCGGGTATCGGTACGTGCTA | 4.98 |
| TTAGATCTCAGTTTCGATTAGTGCTAG | 3.73 |
| GACGATTTCGGGTTTCGAGTCGTGCTA | 3.15 |
| TTTGATTTCGGGACTGGATTAGTGCTA | 1.86 |
| GACGGTCTCGGTCTAGGGACGTGCTAG | 0.746 |
| GACGAACAGAGTCTCGAGACGTGCTAG | -0.363 |
| TTAGATTCCAGTTTCCATTAGTGCTAG | 5.91 |
| TTAGGACTGGCCACTGGGTTAGTGCTA | -1.23 |
| GACAGTTCCCTTTTCCTGACGTGCTAG | 5.85 |
| GACGGAATGGGGTATCGGGACGTGCTA | -0.16 |
| TTAGGTTCCGGTTTCGGTGAGTGCTAG | 6.91 |
| TCATATGCCGACTTTGGAACTGTGCTA | 0.331 |
| GACGGTCTCGTACTGGGGACGTGCTAG | 0.0899 |
| TTAGGTTTCGACACGGGGTTAGTGCTA | 1.89 |
| TTAGGTCTCCTACTGGTTTAGTGCTAG | 0.777 |
| GACGTTTTCCTTCTCCTGACGTGCTAG | 7.11 |
| TTAGGAATCGGGTTTCGGTTAGTGCTA | 2.97 |
| TTAGATTTCGGGACTGGATTAGTGCTA | 1.45 |
| GACGGTCTCCGTCTCGGGACGTGCTAG | 2.06 |
| TCATGTAACTCCTATCCAACTGTGCTA | 0.293 |
| GACGATTTCACTTCCGAGACGTGCTAG | 3.31 |
| GACGGTTTCCTGCTCCTGACGTGCTAG | 3.67 |
| GACGGTCTACTTTTCCTGACGTGCTAG | 0.884 |

Block 2
Target: RNA binding protein fox-1 homolog 2, RRM domain, GST-SBP tag (RBFOX2, Homo sapiens, UniProt O43251-10, residues 100-194)
Technique: RNA Bind-n-Seq
Form: RNA
Matrix: in vitro
Concentration: 365 nM
Setting: natural RNA segment, single round, ends assumed
Reference: no-protein control
Reading: higher = stronger binding
Target sequence (chain): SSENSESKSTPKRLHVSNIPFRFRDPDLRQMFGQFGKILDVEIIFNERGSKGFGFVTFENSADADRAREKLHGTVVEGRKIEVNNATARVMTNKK
| Sequence | RBNS enrichment (R) |
| --- | --- |
| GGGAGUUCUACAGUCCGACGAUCGAGAGGUUCUGUAGAAUCCGAGCCUAGCACCCCAAAGUCAUGCACCCAGUAUCCUCUUGUAUGACUGUAUAUGUCUAUGUCUGGGAUCCAGGGCAAAUGUGAAUUUUCUUUGGAAUUCUCGGGUGCCAA | 0.258 |
| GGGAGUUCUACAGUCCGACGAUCCCUGUGGUCCCACUGCGCAGGGCACAGCCACCUCAGCCACUCCCAGGCUGGACCACACGCUAACCUCCUGAGUGGUUCAGCUGCGUCUGGUCUGGUCAGGGUCCUGCUGCUGGAAUUCUCGGGUGCCAA | 0.355 |
| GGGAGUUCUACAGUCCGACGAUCCUUUAUUAUCUUAGUAGUUUCAUGCUGUGUAUGUACCAUAACCAACCUAUUGCCUAUGAGAAACAUGUAAGAUAAUGUAUUUACAGCCAUUGUUACAAGUUUAUAAUGUAUGGAAUUCUCGGGUGCCAA | 0.677 |
| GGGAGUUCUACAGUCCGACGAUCUGUUCCCUCUUUCCUUCAAGUGCCUGUUGCAUAUUGAAAGGAAGGAGAAAUCCCAAAGCAGAUUCCUUUGAUCGGGUUUCUGUUGGAGAUGGGGCUUCCCUUAGGAGCCAUGGAAUUCUCGGGUGCCAA | 0.253 |
| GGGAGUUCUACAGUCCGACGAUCCUCCCCUUGAGGCUGCUGCCUGCUUGGCCAGCCUCUGUCCAGAAAGGACCAGAGAAAGCCAGGCUGGAUCGUCACAUGCCGGGGAGCAAUGUGGAUGGCCUGGGGACUCCUGGAAUUCUCGGGUGCCAA | 0.372 |
| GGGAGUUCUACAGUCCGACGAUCUGCUCAUUGUAACCAUCGUUCACCAGUGUCCGGCCCCUAGUAGGACCACACAUCACUGCCUGAACUCCUUUGGCAGAAGAACCCCACCAGACAUUGAGACAUUGUAUUUUUGGAAUUCUCGGGUGCCAA | 0.366 |
| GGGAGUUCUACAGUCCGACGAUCGGCCUCUGGGAAGAGGAGAAAUGUAGCCUGAGCUGGGGCUGGAGGCUGGUCACCGCAUAUCCUUGCCUUCCUUUGGAAUUCUCUUAAGGGAAAGGAAUUUUGCACUUAGCUGGAAUUCUCGGGUGCCAA | 0.951 |
| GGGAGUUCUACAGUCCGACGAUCAUAUAAAGCACAAUUACUAUAUUUCACAGUUUUUGCUAAUAGAAAAUGCUGAUUCUGAUUCUGAGAUCAAUUUGUGGGAAUUUUACAUAAAUCUUUGUUAAUUACUGAGUUGGAAUUCUCGGGUGCCAA | 0.54 |
| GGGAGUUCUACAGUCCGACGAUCAAACAGUGUGGCAUGCCAACAUCUCUAUAGUGAUUUUUACACGUGAUGUAUUCGGUGUAGCUGAGGUCACUUUGGAAGUCUGUGGCUGUUCCAUGUCCUAGGCAAGCCACUGGAAUUCUCGGGUGCCAA | 9.26 |
| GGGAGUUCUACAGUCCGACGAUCACCCUCGAGACUCUGCAAAACAUAGUAGCUGCUGCUGCUUGUGUGGCGUGACCCUCUUGUGAAGUACUGGUUCUGUUUCCUGAUUCCUUUUGCACUCCUCCAUCCCACCUUGGAAUUCUCGGGUGCCAA | 0.221 |
| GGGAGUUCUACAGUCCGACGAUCUGAAAAUCCAUUGUUAUCUUAGGGAUUAGUUUUGAAAAGCCCCCGUUUAUAUACAUUUGCCCUAACAUAGGAAGUAUUGUGUAGUUUCUCAUUGUCAUUUUAUCUGUAUCUGGAAUUCUCGGGUGCCAA | 0.623 |
| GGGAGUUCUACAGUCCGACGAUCCAGUCUUACUCCUGAUCUCUUUAGUCCCAAUCCUGCCAAUAAAAAGCAUCGUUUAACUUGUUCUAUGACCCUCUCCUUGCCAUUUAUUCUGGACCUGAUGGGAACCAAAGUGGAAUUCUCGGGUGCCAA | 0.678 |

Block 3
Target: Prothrombin, mature alpha-thrombin (F2, Homo sapiens, UniProt P00734)
Technique: aptamer microarray, sandwich
Form: DNA with 2'F-ANA
Matrix: in vitro
Concentration: 200 nM
Setting: whole 15-mer aptamer, many near background
Together with: Cy3 exosite-II aptamer, 400 nM
Reading: higher = stronger binding
Sequence: GGTTGGTGTGGTTGG
| Modification | mean fluorescence intensity |
| --- | --- |
| 2'F-ANA at 5 6 8 10 11 12 14 | 48.6 a.u. |
| 2'F-ANA at 1 2 3 5 7 13 14 | 46.8 a.u. |
| 2'F-ANA at 1 2 7 8 10 11 12 13 14 15 | 58.5 a.u. |
| 2'F-ANA at 1 2 3 4 5 6 7 12 | 121 a.u. |
| 2'F-ANA at 1 2 5 8 10 | 72.1 a.u. |
| 2'F-ANA at 4 5 7 10 11 12 15 | 49.8 a.u. |
| 2'F-ANA at 1 2 3 4 6 12 14 15 | 88.1 a.u. |
| 2'F-ANA at 2 6 7 9 10 11 15 | 110 a.u. |
| 2'F-ANA at 2 3 9 11 12 14 | 512 a.u. |
| 2'F-ANA at 1 3 5 10 12 13 14 15 | 44.4 a.u. |
| 2'F-ANA at 1 3 5 6 7 9 10 13 | 45 a.u. |
| 2'F-ANA at 2 3 4 5 6 10 11 12 13 14 | 146 a.u. |
| 2'F-ANA at 1 5 7 14 15 | 46.3 a.u. |
| 2'F-ANA at 2 3 5 7 9 10 11 12 13 | 62 a.u. |
| 2'F-ANA at 1 2 3 4 7 11 13 14 | 62.2 a.u. |
| 2'F-ANA at 4 5 6 10 12 14 15 | 47.5 a.u. |
| 2'F-ANA at 2 5 6 7 9 11 12 15 | 128 a.u. |
| 2'F-ANA at 1 2 4 5 6 7 8 9 14 | 48.4 a.u. |
| 2'F-ANA at 9 11 15 | 431 a.u. |
| 2'F-ANA at 1 5 6 7 8 10 11 12 13 15 | 51.9 a.u. |
| 2'F-ANA at 4 6 8 9 12 13 15 | 305 a.u. |
| 2'F-ANA at 2 6 7 8 10 | 140 a.u. |

Block 4
Target: Sal-like protein 4, full length isoform A (SALL4, Homo sapiens, UniProt Q9UJQ4, residues 1-1053)
UniProt Q9UJQ4, sequence (whole entry, looked up): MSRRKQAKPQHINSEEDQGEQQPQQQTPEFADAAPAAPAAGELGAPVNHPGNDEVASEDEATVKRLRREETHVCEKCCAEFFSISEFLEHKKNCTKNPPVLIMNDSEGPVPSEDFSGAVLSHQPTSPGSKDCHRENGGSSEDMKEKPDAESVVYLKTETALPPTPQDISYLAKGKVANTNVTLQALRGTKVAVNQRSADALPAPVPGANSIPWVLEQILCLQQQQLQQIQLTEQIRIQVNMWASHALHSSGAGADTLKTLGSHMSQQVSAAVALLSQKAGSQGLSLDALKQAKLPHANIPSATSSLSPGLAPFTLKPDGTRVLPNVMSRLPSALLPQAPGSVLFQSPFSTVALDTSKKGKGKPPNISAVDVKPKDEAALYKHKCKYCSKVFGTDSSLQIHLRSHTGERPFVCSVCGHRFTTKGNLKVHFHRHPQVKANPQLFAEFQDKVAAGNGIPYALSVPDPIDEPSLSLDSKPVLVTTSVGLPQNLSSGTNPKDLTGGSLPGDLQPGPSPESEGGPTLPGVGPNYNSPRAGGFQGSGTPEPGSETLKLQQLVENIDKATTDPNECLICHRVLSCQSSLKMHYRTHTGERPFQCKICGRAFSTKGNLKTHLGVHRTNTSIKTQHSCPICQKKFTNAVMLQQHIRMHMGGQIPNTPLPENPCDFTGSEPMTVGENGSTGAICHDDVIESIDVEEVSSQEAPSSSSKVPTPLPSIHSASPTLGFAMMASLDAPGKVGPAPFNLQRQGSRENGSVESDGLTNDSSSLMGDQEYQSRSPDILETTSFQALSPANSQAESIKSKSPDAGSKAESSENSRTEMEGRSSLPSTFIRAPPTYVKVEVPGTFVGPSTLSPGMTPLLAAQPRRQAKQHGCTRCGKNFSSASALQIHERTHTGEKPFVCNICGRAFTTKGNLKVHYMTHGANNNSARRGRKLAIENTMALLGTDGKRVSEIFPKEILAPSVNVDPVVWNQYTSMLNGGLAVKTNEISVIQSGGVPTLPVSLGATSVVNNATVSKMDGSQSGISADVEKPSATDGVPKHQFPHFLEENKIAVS
Technique: universal PBM
Form: double-stranded DNA, one strand shown
Matrix: in vitro
Concentration: 600 nM
Setting: 8-mer, flanks averaged, mean of replicates
Reading: higher = stronger binding
| Sequence | E-score |
| --- | --- |
| AAGAGTAC | 0.0644 |
| AGGGTCTA | -0.159 |
| ATGTCAAT | 0.248 |
| ACCACTGA | -0.0752 |
| ACGGCTCC | -0.187 |
| GTATCTTA | 0.307 |
| ACCGTATC | -0.0352 |
| ACGTGTTA | 0.0968 |
| ATGAGGCC | -0.178 |
| AAGGCGTC | -0.145 |
| CAAGCATA | 0.149 |
| CCTAAGCC | -0.33 |
| CAAGTGAG | -0.0995 |
| GAAGACTC | -0.00898 |
| ACTGGCCT | -0.157 |
| CTGTCGTC | -0.0737 |
| CGAAAGAA | 0.124 |
| CCCAATAA | 0.212 |
| ATTCCACG | -0.00585 |
| CTGGATGC | -0.27 |
| CCTGGACA | -0.21 |
| CGCATTGA | -0.00229 |
| AATGTGGA | 0.252 |
| TCCCTAAA | 0.168 |
| CTGATACA | 0.0826 |

Some of these lines once more (block 1):
| Sequence | fitted relative affinity [z-score] |
| --- | --- |
| GACGTTTTCCTTCTCCTGACGTGCTAG | 7.11 |
| GACGGTCTCGTACTGGGGACGTGCTAG | 0.0899 |
| GACGGAATGGGGTATCGGGACGTGCTA | -0.16 |
| GACGATTTCGGGTTTCGAGTCGTGCTA | 3.15 |
| TTAGGACTGGCCACTGGGTTAGTGCTA | -1.23 |
| GACGGTCTCCGTCTCGGGACGTGCTAG | 2.06 |
